# Results from different studies.
# Lines come from different studies, so protocols differ. ± marks the error that the study gave.
# Method: steady-state kinetics
# B1: protein (Rheum palmatum, UniProt A0A7L9A2S6); chain MKKTELVFLPAPAPGHLVSTVEFSKRLIARDARLTVTILVISSPFSRGAQTNPSPGIRYVTLPQVDVPQHLMKDSIEHTISVYIASHAPHVRDAVAALQTESTVHVAGLFLDMFCTPMIDVANELGLPSYVFFCSSAGFLGLLLHLPVHSQPRFDETGLDVLIPSFQNPVPTRVLPRFGFNELGYKSFMDHAKRFGETKGIIINTYAELEPYALKSLLDAYDTAPVYAVGPVLDLRSQVHMPCDAAERARIMGWLDKQPDSSVVFLCFGSGGSFSEHQIREISKGLSQSGQRFLWSVRKPPTGGLVKPTEYTETELRSVLGDEFWSLLDEGERGVVCGWAPQVEVLGHKSVGAFVSHCGWNSTLESLWFGKPMVTWPLYAEQQMNAFELVKELGIAVELTLDYRLHSSEVVEAREVERAVRRVMDENNPVRYKVKEMAEVCRATLVEGGSSFVCVDRLISGFLGEIN
# B2: mleA (Oenococcus oeni, UniProt Q48796); chain MTDPVSILNDPFINKGTAFTEAEREELGLNGLLPAKVQALQEQVDQTYAQFQSKVSNLEKRLFLMEIFNTNHVLFYKLFSQHVVEFMPIVYDPTIADTIENYSELFVEPQGAAFLDINHPENIQSTLKNAANGRDIKLLVVSDAEGILGIGDWGVQGVDIAVGKLMVYTVAAGIDPSTVLAVVIDAGTNNEKLLKDPMYLGNKFNRVRGDKYYDFIDKFVNHAESLFPNLYLHWEDFGRSNASNILNSYKDKIATFNDDIQGTGIVVLAGVLGALKISGQKLTDQTYMSFGAGTAGMGIVKQLHEEMVEQGLSDEEAKKHFFLVDKQGLLFDDDPDLTPEQKPFAAKRSDFKNANQLTNLQAAVEAVHPTILVGTSTHPNSFTEEIVKDMSGYTERPIIFPISNPTKLAEAKAEDVLKWSNGKALIGTGVPVDDIEYEGNAYQIGQANNALIYPGLGFGAIAAQSKLLTPEMISAAAHSLGGIVDTTKVGAAVLPPVSKLADFSRTVAVAVAKKAVEQGLNRQPIDDVEKAVDDLKWDPKY
# B3: PduO F112H (Limosilactobacillus reuteri, UniProt Q50EJ2); chain MKIYTKNGDKGQTRIIGKQILYKNDPRVAAYGEVDELNSWVGYTKSLINSHTQVLSNELEEIQQLLFDCGHDLATPADDERHSFKFKQEQPTVWLEEKIDNYTQVVPAVKKHILPGGTQLASALHVARTITRRAERQIVQLMREEQINQDVLIFINRLSDYFFAAARYANYLEQQPDMLYRNSKDVFR
# B4: enzyme A178R/D177A/M179H/P184R (Levilactobacillus brevis, UniProt Q03Q85); chain MKVTVVGCTHAGTFAIKQILAEHPDAEVTVYERNDVISFLSCGIALYLGGKVADPQGLFYSSPEELQKLGANVQMNHNVLAIDPDQKTVTVEDLTNHAQTTESYDKLVMTSGSWPIVPKIPGIDSDRVKLCKNWAHAQALIEDAKEAKRITVIGAGYIGAELAEAYSTTGHDVTLIARHARVMRKYFDADFTDVIEQDYRDHGVQLALGETVESFTDSATGLTIKTDKNSYETDLAILCIGFRPNTDLLKGKVDMAPNGAIITDDYMRSSNPDIFAAGDSAAVHYNPTHQNAYIPLATNAVRQGILVGKNLVKPTVKYMGTQSSSGLALYDRTIVSTGLTLAAAKQQGLNAEQVIVEDNYRPEFMPSTEPVLMSLVFDPDTHRILGGALMSKYDVSQSANTLSVCIQNENTIDDLAMVDMLFQPNFDRPFNYLNILAQAAQAKVAQSVNA
# B5: CPT1 (Solanum lycopersicum, UniProt C1K5M2); chain SLNLQTEKLCYEDNDNDLDEELMPKHIALIMDGNRRWAKDKGLEVYEGHKHIIPKLKEICDISSKLGIQIITAFAFSTENWKRSKEEVDFLLQMFEEIYDEFSRSGVRVSIIGCKSDLPMTLQKCIALTEETTKGNKGLHLVIALNYGGYYDILQATKSIVNKAMNGLLDVEDINKNLFDQELESKCPNPDLLIRTGGEQRVSNFLLWQLAYTEFYFTNTLFPDFGEEDLKEAIMNFQQRHRRFGGHTY
# B6: protein (UniProt A0A4Y6I1F8); chain MGSEVVSKKHEFGALEVEGIDFRASVAALGSTKKLVLGGAGFRGLEINGNLVKFTAIGIYVEEAIIPHLSPKLGGKTVEELCANELLFEEVLSAPFDKLIRVVFLLPLTGPQYSEKVVERIGLLPNPGLKEESIKQFLEIFKAENFPPRTSLVCSFTEDGLKIAFMKGPDFPEESDAVIEDKYFARAFLATIIAKDGVSPMAKLSFAERVSKYL
# B7: BPHL (Homo sapiens, UniProt Q86WA6); chain SVTSAKVAVNGVQLHYQQTGEGDHAVLLLPGMLGSGETDFGPQLKNLNKKLFTVVAWDPRGYGHSRPPDRDFPADFFERDAKDAVDLMKALKFKKVSLLGWSDGGITALIAAAKYPSYIHKMVIWGANAYVTDEDSMIYEGIRDVSKWSERTRKPLEALYGYDYFARTCEKWVDGIRQFKHLPDGNICRHLLPRVQCPALIVHGEKDPLVPRFHADFIHKHVKGSRLHLMPEGKHNLHLRFADEFNKLAEDFLQ
# B8: asnB E349D (Escherichia coli, UniProt P22106); chain CSIFGVFDIKTDAVELRKKALELSRLMRHRGPDWSGIYASDNAILAHERLSIVDVNAGAQPLYNQQKTHVLAVNGEIYNHQALRAEYGDRYQFQTGSDCEVILALYQEKGPEFLDDLQGMFAFALYDSEKDAYLIGRDHLGIIPLYMGYDEHGQLYVASEMKALVPVCRTIKEFPAGSYLWSQDGEIRSYYHRDWFDYDAVKDNVTDKNELRQALEDSVKSHLMSDVPYGVLLSGGLDSSIISAITKKYAARRVEDQERSEAWWPQLHSFAVGLPGSPDLKAAQEVANHLGTVHHEIHFTVQEGLDAIRDVIYHIETYDVTTIRASTPMYLMSRKIKAMGIKMVLSGDGSDEVFGGYLYFHKAPNAKELHEETVRKLLALHMYDCARANKAMSAWGVEARVPFLDKKFLDVAMRINPQDKMCGNGKMEKHILRECFEAYLPASVAWRQKEQFSDGVGYSWIDTLKEVAAQQVSDQQLETARFRFPYNTPTSKEAYLYREIFEELFPLPSAAECVPGGPSVACSSAKAIEWDEAFKKMDDPSGRAVGVHQSAYK
# B9: enzyme (Streptomyces filamentosus, UniProt A0ABY4UVI6); chain MEHRIDADLLIPGAGEPTVNGSVVHADGRIRFAGPTAELPREHRALEPTRVATLLPGLWDCHVHFAGIRGRVSTEELMLTPETLAVVRSVKDAETALRAGFTSVRDMGGHGCVLAEAVREGTFTGPNIYSANQVIGQTGGHSDAHRLPYRWVTDPCRSGGTLRIADGVDECVRAVRLQLRAGAELIKICTSGGVLSEVDNPVHQQYRSEELNAIVTEAARADRVVAAHCHGRAGILAAIDAGCHTVEHGTEIDERTADLMAERGMTLVPTRTIYEAFRQDVAALPPAWRDRFALMAERHLTAIGIAHRAGVTIALGTDLGTSDRGGPLSWGGHGSEFAHLVSAGLSPLEAIKAATAHGPGTLGPRAPRSGRLEAGYDADLLAVDGNPLADITVLADPDRITRVWKSGEPVPSG
# B10: carbamoyl phosphate synthetase large subunit (Escherichia coli, UniProt P00968); chain PKRTDIKSILILGAGPIVIGQACEFDYSGAQACKALREEGYRVILVNSNPATIMTDPEMADATYIEPIHWEVVRKIIEKERPDAVLPTMGGQTALNCALELERQGVLEEFGVTMIGATADAIDKAEDRRRFDVAMKKIGLETARSGIAHTMEEALAVAADVGFPCIIRPSFTMGGSGGGIAYNREEFEEICARGLDLSPTKELLIDESLIGWKEYEMEVVRDKNDNCIIVCSIENFDAMGIHTGDSITVAPAQTLTDKEYQIMRNASMAVLREIGVETGGSNVQFAVNPKNGRLIVIEMNPRVSRSSALASKATGFPIAKVAAKLAVGYTLDELMNDITGGRTPASFEPSIDYVVTKIPRFNFEKFAGANDRLTTQMKSVGEVMAIGRTQQESLQKALRGLEVGATGFDPKVSLDDPEALTKIRRELKDAGADRIWYIADAFRAGLSVDGVFNLTNIDRWFLVQIEELVRLEEKVAEVGITGLNADFLRQLKRKGFADARLAKLAGVREAEIRKLRDQYDLHPVYKRVDTCAAEFATDTAYMYSTYEEECEANPSTDREKIMVLGGGPNRIGQGIEFDYCCVHASLALREDGYETIMVNCNPETVSTDYDTSDRLYFEPVTLEDVLEIVRIEKPKGVIVQYGGQTPLKLARALEAAGVPVIGTSPDAIDRAEDRERFQHAVERLKLKQPANATVTAIEMAVEKAKEIGYPLVVRPSYVLGGRAMEIVYDEADLRRYFQTAVSVSNDAPVLLDHFLDDAVEVDVDAICDGEMVLIGGIMEHIEQAGVHSGDSACSLPAYTLSQEIQDVMRQQVQKLAFELQVRGLMNVQFAVKNNEVYLIEVNPRAARTVPFVSKATGVPLAKVAARVMAGKSLAEQGVTKEVIPPYYSVKEVVLPFNKFPGVDPLLGPEMRSTGEVMGVGRTFAEAFAKAQLGSNSTMKKHGRALLSVREGDKERVVDLAAKLLKQGFELDATHGTAIVLGEAGINPRLVNKVHEGRPHIQDRIKNGEYTYIINTTSGRRAIEDSRVIRRSALQYKVHYDTTLNGGFATAMALNADATEKVISVQEMHAQIK
# UniProt O95674, sequence (whole entry, looked up): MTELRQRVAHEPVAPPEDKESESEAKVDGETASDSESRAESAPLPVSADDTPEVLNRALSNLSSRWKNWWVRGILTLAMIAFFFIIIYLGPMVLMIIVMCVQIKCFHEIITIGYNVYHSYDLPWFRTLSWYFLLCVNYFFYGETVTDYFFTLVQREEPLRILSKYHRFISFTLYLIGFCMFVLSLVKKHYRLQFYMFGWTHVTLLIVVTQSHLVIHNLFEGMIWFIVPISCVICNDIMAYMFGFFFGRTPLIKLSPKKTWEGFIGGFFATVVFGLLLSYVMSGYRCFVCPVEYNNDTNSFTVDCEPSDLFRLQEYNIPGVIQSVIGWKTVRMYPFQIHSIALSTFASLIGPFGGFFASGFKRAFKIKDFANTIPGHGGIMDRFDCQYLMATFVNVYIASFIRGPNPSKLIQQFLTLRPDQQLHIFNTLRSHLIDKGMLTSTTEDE
# UniProt P08253, sequence (whole entry, looked up): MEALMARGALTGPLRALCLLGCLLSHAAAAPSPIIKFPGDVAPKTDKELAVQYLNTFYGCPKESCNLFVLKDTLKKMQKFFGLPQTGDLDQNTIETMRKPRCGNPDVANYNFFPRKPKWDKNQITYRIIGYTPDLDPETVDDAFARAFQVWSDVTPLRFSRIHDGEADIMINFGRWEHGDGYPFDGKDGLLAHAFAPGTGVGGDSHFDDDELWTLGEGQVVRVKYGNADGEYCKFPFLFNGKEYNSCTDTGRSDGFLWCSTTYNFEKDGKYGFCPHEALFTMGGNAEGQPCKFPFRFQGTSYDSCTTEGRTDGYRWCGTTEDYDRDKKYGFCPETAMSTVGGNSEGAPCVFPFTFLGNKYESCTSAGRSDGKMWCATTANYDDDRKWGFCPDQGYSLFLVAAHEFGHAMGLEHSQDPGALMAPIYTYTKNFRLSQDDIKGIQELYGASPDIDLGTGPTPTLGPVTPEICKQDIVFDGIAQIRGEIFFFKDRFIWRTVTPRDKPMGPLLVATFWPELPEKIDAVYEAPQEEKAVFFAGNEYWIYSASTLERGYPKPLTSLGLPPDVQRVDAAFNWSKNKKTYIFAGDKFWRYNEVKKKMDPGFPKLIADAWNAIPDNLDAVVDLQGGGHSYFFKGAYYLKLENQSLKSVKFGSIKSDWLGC
# UniProt P94679, sequence (whole entry, looked up): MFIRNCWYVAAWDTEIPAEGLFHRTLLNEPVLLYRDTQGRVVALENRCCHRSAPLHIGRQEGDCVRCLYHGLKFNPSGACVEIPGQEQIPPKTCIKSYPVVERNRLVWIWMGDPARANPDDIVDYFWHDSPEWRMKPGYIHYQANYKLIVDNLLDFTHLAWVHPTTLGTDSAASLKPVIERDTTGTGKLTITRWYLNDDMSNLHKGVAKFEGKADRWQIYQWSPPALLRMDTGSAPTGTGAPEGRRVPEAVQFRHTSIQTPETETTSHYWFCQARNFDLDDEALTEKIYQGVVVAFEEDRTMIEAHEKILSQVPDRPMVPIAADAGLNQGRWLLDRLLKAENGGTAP
# UniProt Q8N6T7, sequence (whole entry, looked up): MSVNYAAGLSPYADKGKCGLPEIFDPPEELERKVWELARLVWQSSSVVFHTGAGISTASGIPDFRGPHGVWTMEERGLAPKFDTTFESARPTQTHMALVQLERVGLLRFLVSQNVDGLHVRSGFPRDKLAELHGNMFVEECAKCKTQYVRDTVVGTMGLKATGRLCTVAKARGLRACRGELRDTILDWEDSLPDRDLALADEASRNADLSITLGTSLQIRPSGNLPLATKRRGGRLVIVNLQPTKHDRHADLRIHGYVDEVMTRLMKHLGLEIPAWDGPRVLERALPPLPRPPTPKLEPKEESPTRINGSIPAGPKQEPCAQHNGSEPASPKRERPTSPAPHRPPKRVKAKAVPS
# UniProt P19337, sequence (whole entry, looked up): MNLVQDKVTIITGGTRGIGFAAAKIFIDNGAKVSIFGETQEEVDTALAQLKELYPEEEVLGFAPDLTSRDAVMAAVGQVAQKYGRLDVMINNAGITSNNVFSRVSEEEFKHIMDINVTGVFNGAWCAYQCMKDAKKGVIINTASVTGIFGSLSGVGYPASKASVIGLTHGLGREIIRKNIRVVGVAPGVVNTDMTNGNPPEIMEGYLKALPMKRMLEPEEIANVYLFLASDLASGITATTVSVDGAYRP
Molecule,substrate,pH,temperature,setting,with,kcat
B1 (protein),COc1cc(-c2oc3cc(O)cc(O)c3c(=O)c2O)ccc1O,pH 7.5,35 °C,apparent,UDP-glucose,0.0052 ± 0.00035 s⁻¹
B2 (mleA),NC(=O)c1ccc[n+]([C@@H]2O[C@H](COP(=O)(O)OP(=O)(O)OC[C@H]3O[C@@H](n4cnc5c(N)ncnc54)[C@H](O)[C@@H]3O)[C@@H](O)[C@H]2O)c1,pH 6,45 °C,cofactor varied,,227 ± 3.35 s⁻¹
B3 (PduO F112H),Nc1ncnc2c1ncn2[C@@H]1O[C@H](COP(=O)(O)OP(=O)(O)OP(=O)(O)O)[C@@H](O)[C@H]1O,pH 8,37 °C,anoxic,cob(I)alamin,0.00038 ± 1e-05 s⁻¹
"CDS2 (Homo sapiens, UniProt O95674)",CCCCC/C=C\C/C=C\CCCCCCCC(=O)O[C@H](COC(=O)CCCCCCCCCCCCCCCCC)COP(=O)(O)O,pH 8,,not purified,,2.9 ± 0.1 s⁻¹
"Ptb (Listeria monocytogenes, UniProt Q8Y7B7)",CC(=O)SCCNC(=O)CCNC(=O)[C@H](O)C(C)(C)COP(=O)(O)OP(=O)(O)OC[C@H]1O[C@@H](n2cnc3c(N)ncnc32)[C@H](O)[C@@H]1OP(=O)(O)O,pH 7.5,25 °C,"apparent, poor fit",,302 ± 104 s⁻¹
B4 (enzyme A178R/D177A/M179H/P184R),NC(=O)C1=CN([C@@H]2O[C@H](COP(=O)(O)OP(=O)(O)OC[C@H]3O[C@@H](n4cnc5c(N)ncnc54)[C@H](OP(=O)(O)O)[C@@H]3O)[C@@H](O)[C@H]2O)C=CC1,pH 7.5,37 °C,per site,,123 ± 19 s⁻¹
B5 (CPT1),C=C(C)CCO[P@@](=O)(O)OP(=O)(O)O,,,,,0.111 ± 0.023 s⁻¹
"BaiA2 (Clostridium scindens, UniProt P19337)",C[C@H](CCC(=O)SCCNC(=O)CCNC(=O)[C@H](O)C(C)(C)COP(=O)(O)OP(=O)(O)OC[C@H]1O[C@@H](n2cnc3c(N)ncnc32)[C@H](O)[C@@H]1OP(=O)(O)O)[C@H]1CC[C@H]2[C@@H]3[C@H](O)C[C@@H]4C[C@H](O)CC[C@]4(C)[C@H]3C[C@H](O)[C@]12C,pH 8.7,37 °C,,NAD+,0.167 s⁻¹
B6 (protein),O=C(/C=C/c1ccc(O)cc1)c1c(O)cc(O)cc1O,,,,,156 ± 12.9 s⁻¹
B7 (BPHL),CC(C)[C@H](N)C(=O)NCc1cccc(NC=NN)c1,pH 7.4,37 °C,,,0.00229 ± 4e-05 s⁻¹
B8 (asnB E349D),NC(=O)CC[C@H](N)C(=O)O,pH 8,37 °C,"100 mM NaCl, glutaminase site",MgCl2; no ATP,4.1 ± 0.1 s⁻¹
B9 (enzyme),CSc1c(O)cc(-c2ccccn2)nc1C(=O)N[C@@H](CC(C)C)C(=O)O,pH 8,30 °C,,,0.0132 ± 0.000333 s⁻¹
"alanine aminopeptidase (Neisseria meningitidis, UniProt Q9JYV4)",NC(=O)Cc1cc(=O)oc2cc(NC(=O)[C@@H](N)CCC(=O)OCc3ccccc3)ccc12,pH 7.5,37 °C,,,5.6 ± 0.28 s⁻¹
"MMP2 (Homo sapiens, UniProt P08253)",CC(=O)N[C@@H](CCC(N)=O)C(=O)N1CCC[C@H]1C(=O)N[C@@H](CCC(N)=O)C(=O)NCC(=O)N[C@@H](CC(C)C)C(=O)N[C@@H](C)C(=O)N[C@@H](CCCCN)C(N)=O,,,,,36.5 s⁻¹
B10,Nc1ncnc2c1ncn2[C@@H]1O[C@H](COP(=O)(O)OP(=O)(O)OP(=O)(O)O)[C@@H](O)[C@H]1O,pH 7.6,,KCl 100 mM,"glutamine 10 mM, ornithine 10 mM",3.6 ± 0.11 s⁻¹
"tsaM1 (Comamonas testosteroni, UniProt P94679)",COc1cc(C(=O)O)ccc1O,,,apparent,NADH 1 mM,0.03 ± 0.0117 s⁻¹
"SIRT6 (Homo sapiens, UniProt Q8N6T7)",CSCC[C@H](NC(=O)[C@H](CC(C)C)NC(=O)[C@H](CCCCNC(C)=O)NC(=O)[C@H](CCCCN)NC(=O)[C@H](Cc1c[nH]cn1)NC(=O)[C@H](CCCNC(=N)N)NC(=O)[C@H](CO)NC(=O)[C@@H](NC(=O)[C@H](CO)NC(=O)[C@H](CCC(N)=O)NC(=O)CNC(=O)[C@H](CCCCN)NC(=O)[C@@H](N)CCCCN)[C@@H](C)O)C(=O)N[C@@H](Cc1ccccc1)C(=O)N[C@@H](CCCCN)C(=O)N[C@H](C(=O)N[C@@H](CCC(=O)O)C(=O)NCC(=O)O)[C@@H](C)O,pH 7.5,37 °C,,"NAD+ 800 µM, SIRT6 10 µM",0.0014 ± 0.0006 s⁻¹
